Measured values collected from several papers.
± marks the error that the study gave.
Sequence of UniProt Q92973 (whole entry, looked up): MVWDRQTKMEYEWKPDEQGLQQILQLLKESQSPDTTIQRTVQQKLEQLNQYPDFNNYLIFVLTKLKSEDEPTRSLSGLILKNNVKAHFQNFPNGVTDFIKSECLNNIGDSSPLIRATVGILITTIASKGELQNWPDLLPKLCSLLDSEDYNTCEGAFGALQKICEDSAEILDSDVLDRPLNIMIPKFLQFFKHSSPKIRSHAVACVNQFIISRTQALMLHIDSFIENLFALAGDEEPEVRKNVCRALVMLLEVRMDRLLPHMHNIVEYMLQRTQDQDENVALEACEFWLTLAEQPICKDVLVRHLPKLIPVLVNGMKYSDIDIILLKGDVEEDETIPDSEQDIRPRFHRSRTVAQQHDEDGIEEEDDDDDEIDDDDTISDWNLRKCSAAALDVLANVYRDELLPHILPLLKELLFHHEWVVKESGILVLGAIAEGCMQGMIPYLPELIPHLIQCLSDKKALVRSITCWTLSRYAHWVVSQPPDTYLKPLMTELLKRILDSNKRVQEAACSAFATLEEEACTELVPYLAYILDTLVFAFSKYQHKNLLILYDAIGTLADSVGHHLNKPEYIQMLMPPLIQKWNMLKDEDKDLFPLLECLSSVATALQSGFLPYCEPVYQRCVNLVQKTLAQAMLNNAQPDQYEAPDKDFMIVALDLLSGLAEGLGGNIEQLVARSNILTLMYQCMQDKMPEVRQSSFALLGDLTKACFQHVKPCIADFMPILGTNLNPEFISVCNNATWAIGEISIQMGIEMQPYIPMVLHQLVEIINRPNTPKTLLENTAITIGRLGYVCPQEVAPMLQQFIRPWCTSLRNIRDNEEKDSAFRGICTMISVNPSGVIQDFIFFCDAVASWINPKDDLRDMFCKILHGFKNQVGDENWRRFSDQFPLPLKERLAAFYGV
Sequence of UniProt P07948 (whole entry, looked up): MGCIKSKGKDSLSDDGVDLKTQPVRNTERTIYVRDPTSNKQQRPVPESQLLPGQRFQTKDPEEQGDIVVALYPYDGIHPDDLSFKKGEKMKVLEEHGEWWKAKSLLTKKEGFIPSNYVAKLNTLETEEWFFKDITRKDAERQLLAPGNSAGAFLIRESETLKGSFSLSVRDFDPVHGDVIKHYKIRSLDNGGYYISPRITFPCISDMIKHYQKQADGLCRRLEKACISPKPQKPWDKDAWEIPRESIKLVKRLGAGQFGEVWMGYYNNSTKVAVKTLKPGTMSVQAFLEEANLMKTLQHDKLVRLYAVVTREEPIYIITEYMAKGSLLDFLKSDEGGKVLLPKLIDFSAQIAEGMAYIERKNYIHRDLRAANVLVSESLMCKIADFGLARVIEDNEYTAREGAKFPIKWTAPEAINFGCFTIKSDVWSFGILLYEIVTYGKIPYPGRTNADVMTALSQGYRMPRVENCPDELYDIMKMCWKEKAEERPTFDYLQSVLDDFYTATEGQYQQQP
Sequence of UniProt P07101 (whole entry, looked up): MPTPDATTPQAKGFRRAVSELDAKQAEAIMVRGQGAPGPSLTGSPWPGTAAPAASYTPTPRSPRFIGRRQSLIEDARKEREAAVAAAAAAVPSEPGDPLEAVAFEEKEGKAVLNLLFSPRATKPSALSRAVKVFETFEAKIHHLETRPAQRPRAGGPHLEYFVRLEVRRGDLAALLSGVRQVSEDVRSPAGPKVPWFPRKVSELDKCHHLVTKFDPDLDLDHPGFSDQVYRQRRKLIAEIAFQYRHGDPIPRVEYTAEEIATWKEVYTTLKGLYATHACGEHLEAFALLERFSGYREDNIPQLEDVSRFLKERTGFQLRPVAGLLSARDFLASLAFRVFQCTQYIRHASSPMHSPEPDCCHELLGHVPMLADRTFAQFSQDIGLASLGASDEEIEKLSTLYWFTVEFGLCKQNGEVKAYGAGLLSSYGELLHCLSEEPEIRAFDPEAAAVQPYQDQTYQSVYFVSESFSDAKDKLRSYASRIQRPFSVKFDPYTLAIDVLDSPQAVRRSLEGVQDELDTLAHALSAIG
Sequence of UniProt Q06124 (whole entry, looked up): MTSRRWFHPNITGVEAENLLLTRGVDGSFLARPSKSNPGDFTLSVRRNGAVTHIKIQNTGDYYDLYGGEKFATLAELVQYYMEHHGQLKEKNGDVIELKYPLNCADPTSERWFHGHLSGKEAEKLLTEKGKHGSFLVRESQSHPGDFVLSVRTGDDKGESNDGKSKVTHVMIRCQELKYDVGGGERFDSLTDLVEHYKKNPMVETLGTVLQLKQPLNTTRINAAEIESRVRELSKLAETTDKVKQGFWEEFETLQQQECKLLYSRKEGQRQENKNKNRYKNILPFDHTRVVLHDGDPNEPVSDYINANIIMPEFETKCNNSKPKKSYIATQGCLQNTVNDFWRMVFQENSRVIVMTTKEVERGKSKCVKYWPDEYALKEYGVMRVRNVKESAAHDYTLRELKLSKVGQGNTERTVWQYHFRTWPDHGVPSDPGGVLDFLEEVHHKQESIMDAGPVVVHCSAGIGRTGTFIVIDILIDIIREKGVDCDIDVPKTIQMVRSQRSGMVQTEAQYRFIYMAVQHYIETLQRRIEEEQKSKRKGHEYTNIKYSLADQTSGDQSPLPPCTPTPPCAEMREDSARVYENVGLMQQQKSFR

| SMILES | target or system | test | system | conditions | scale | measurement | result |
| --- | --- | --- | --- | --- | --- | --- | --- |
| CCc1ccc(CC/C=C/c2ccc3c(c2)C(=O)CC3)cc1 |  |  | Sprague-Dawley rat, female, blood | oral, 450 mg/kg/day, 14 days |  | mean platelet volume | 10.7 fL |
| Cc1cc2c(c(O)c1O)C(=O)c1c(O)cc(O)cc1C2=O | HK-2 co-cultured with HepaRG | MTT |  | 133.33 µM, 48 h | reference: untreated control | cell viability | 113 ± 2.91% |
| Cc1cc(C(=O)NC(C)(C)COc2cccc3c2C(N)=NS(=O)(=O)N3)cc(C)n1 | Escherichia coli | Ames test, initial | WP2 uvrA | 150 µg/plate | reference: solvent control | revertant ratio | 1.2 |
| CC[C@H](C)[C@H](NC(=O)[C@H](CC(=O)O)NC(=O)[C@H](C)NC(=O)[C@H](Cc1ccc(OP(=O)(O)O)cc1)NC(=O)[C@H](CCCCN)NC(=O)[C@@H](NC(=O)[C@H](CC(=O)O)NC(=O)CNC(=O)[C@H](CCCCN)NC(=O)[C@H](CCSC)NC(=O)[C@H](CC(=O)O)NC(=O)[C@H](CC(C)C)NC(=O)[C@H](CCSC)NC(=O)c1ccc2c(c1)C(=O)OC21c2ccc(N(C)C)cc2Oc2cc(N(C)C)ccc21)C(C)C)C(=O)N[C@@H](CCC(=O)O)C(=O)N[C@@H](CO)C(=O)N[C@@H](CO)C(=O)N[C@@H](CC(N)=O)C(=O)N[C@@H](CC(=O)O)C(=O)O | Tyrosine-protein phosphatase non-receptor type 11, SH2 domains (PTPN11, Homo sapiens, UniProt Q06124) | binding |  |  |  | Kd | 593 nM |
| COc1cc2c(Oc3ccc4[nH]c(C)cc4c3F)ccnc2cc1OCC1(N)CC1 |  |  | paediatric recurrent refractory sarcoma | 8 mg |  | Vomiting incidence | 0% |
| CC(=O)N1CCC(C(=O)N2CCN3C(=O)c4cc(-c5ccccc5)ccc4NC(=O)C3C2)CC1 (stereo not drawn) | Salmonella typhimurium |  | TA1537 | 1.58 µg/plate |  | revertants per plate | 12.5 |
| O=c1ccc2ccccc2o1 | NHEK | AhR translocation |  | concentration not given, 1 h |  | chance response | 0.8% |
| CC(=O)OC[C@H]1O[C@@H](Oc2cc(O)cc3cc4oc(C)cc(=O)c4c(O)c23)[C@H](O)[C@@H](O)[C@@H]1O | HK-2 co-cultured with HepaRG | MTT |  | 66.67 µM, 24 h | reference: untreated control | cell viability | 114 ± 13.1% |
| C[C@]1(CO)Cc2ncn(-c3ccc(C#N)c(Cl)c3)c2C(=O)O1 |  | item: potassium, serum, ≥5.0 mmol/L | human | European single ascending dose |  | serum potassium elevation incidence | 8.3% |
| CO[C@H]1C[C@@H]2CC[C@@H](C)[C@@](O)(O2)C(=O)C(=O)N2CCCC[C@H]2C(=O)O[C@H]([C@H](C)C[C@@H]2CC[C@@H](OC(=O)NCCOCCOCCOCCOCCOCCOCCOCCOCCC(=O)N3CCc4cc(Cn5nc(-c6ccc7oc(N)nc7c6)c6c(N)ncnc65)ccc4C3)[C@H](OC)C2)C[C@@H](O)[C@H](C)/C=C(\C)[C@@H](O)[C@@H](OC)C(=O)[C@H](C)C[C@H](C)/C=C/C=C/C=C/1C |  |  | patients with advanced solid tumours | intravenous, 10 mg weekly, grade 3 or higher |  | abdominal pain incidence | 0% |
| C[C@H]1CN(c2n[nH]c3nc(N[C@H]4CC[C@H](NS(=O)(=O)CCC(F)(F)F)CC4)ncc23)CCO1 | Transportin-1 (TNPO1, Homo sapiens, UniProt Q92973) | inhibitor, Kinobeads competition profiling |  | 0.16 µM | reference: vehicle | relative abundance | 0.94 |
| CC(C)C[C@H](NC(=O)[C@@H](NC(=O)[C@H](CO)NC(=O)[C@H](CO)NC(=O)[C@@H](NC(=O)[C@H](CC(=O)O)NC(=O)[C@H](CC(C)C)NC(=O)[C@@H]1CCCN1C(=O)[C@H](CO)NC(=O)c1ccc2c(c1)C(=O)OC21c2ccc(N(C)C)cc2Oc2cc(N(C)C)ccc21)[C@@H](C)O)C(C)C)C(=O)N[C@@H](Cc1ccc(OP(=O)(O)O)cc1)C(=O)N[C@H](C(=O)N[C@@H](C)C(=O)N[C@H](C(=O)N[C@@H](CCC(N)=O)C(=O)N1CCC[C@H]1C(=O)N[C@@H](CC(N)=O)C(=O)N[C@@H](CCC(=O)O)C(=O)N[C@@H](CC(=O)O)C(=O)O)C(C)C)[C@@H](C)O | Tyrosine-protein kinase Lyn, SH2 domain (LYN, Homo sapiens, UniProt P07948) | binding |  |  |  | Kd | 185 nM |
| O=C1c2ccccc2C(=O)c2ccccc21 | HK-2 co-cultured with HepaRG | MTT |  | 133.33 µM, 48 h | reference: untreated control | viability | 38.4 ± 5.48% |
| COc1cc(Nc2ncc(F)c(Nc3ccc4c(n3)NC(=O)C(C)(C)O4)n2)cc(OC)c1OC | TH (Homo sapiens, UniProt P07101) |  |  |  |  | IC50 | > 10000 nM |
| CC[C@H](C)[C@@H]1NC(=O)[C@@H]2CCCN2C(=O)[C@H](CC(C)C)NC(=O)[C@H](CC(C)C)NC(=O)CNC(=O)[C@@H](NC(=O)[C@@H](NC(=O)[C@H](CC(=O)O)NC(=O)CNC(=O)[C@@H](NC(=O)[C@H](C)NC(=O)CNC(=O)[C@H](CCCCN)NC(=O)[C@H](CC(C)C)NC(=O)[C@H](CC(C)C)NC(=O)[C@H](CCCCN)NC(=O)CNC(=O)[C@@H](NC(=O)[C@@H](N)CC(C)C)C(C)C)C(C)C)C(C)C)CSSC[C@@H](C(=O)O)NC1=O |  | RNA-seq, item: Ppm1j | mouse, traumatic brain injury model, frontal cortex and hippocampus | dose not given | reference: TBI alone | log2 fold change | -2.67 |

For quick reference, copied from above:
| SMILES | target or system | test | system | conditions | scale | measurement | result |
| --- | --- | --- | --- | --- | --- | --- | --- |
| C[C@H]1CN(c2n[nH]c3nc(N[C@H]4CC[C@H](NS(=O)(=O)CCC(F)(F)F)CC4)ncc23)CCO1 | Transportin-1 (TNPO1, Homo sapiens, UniProt Q92973) | inhibitor, Kinobeads competition profiling |  | 0.16 µM | reference: vehicle | relative abundance | 0.94 |
| CO[C@H]1C[C@@H]2CC[C@@H](C)[C@@](O)(O2)C(=O)C(=O)N2CCCC[C@H]2C(=O)O[C@H]([C@H](C)C[C@@H]2CC[C@@H](OC(=O)NCCOCCOCCOCCOCCOCCOCCOCCOCCC(=O)N3CCc4cc(Cn5nc(-c6ccc7oc(N)nc7c6)c6c(N)ncnc65)ccc4C3)[C@H](OC)C2)C[C@@H](O)[C@H](C)/C=C(\C)[C@@H](O)[C@@H](OC)C(=O)[C@H](C)C[C@H](C)/C=C/C=C/C=C/1C |  |  | patients with advanced solid tumours | intravenous, 10 mg weekly, grade 3 or higher |  | abdominal pain incidence | 0% |
